Measured values from different studies.
Parts stem from different laboratories: compare values within a part only. Positions count from the first letter of the parent shown.

Study 1
Target: RNA binding protein fox-1 homolog 2, RRM domain, GST-SBP tag (RBFOX2, Homo sapiens, UniProt O43251-10, residues 100-194)
Method: RNA Bind-n-Seq
Molecule type: RNA
Medium: in vitro
Concentration: 365 nM
Setting: natural RNA segment, single round, ends assumed
Baseline: no-protein control
Direction: higher = stronger binding
Endpoint: RBNS enrichment (R)
Residues (chain): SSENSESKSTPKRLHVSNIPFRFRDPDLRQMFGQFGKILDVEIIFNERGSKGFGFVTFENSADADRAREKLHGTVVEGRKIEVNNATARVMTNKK
Oligonucleotide = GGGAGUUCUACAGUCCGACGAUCUCCCUGCUCCCCCAGUUUUUUUUCUCUUUGUUAACAAAUGUGUCUGAGUCUUGGAAAACACCCCAAACCCGGAAAUGUGUGGGAAAAAGAAAACAAAAACUUUCCAAAUUUGGAAUUCUCGGGUGCCAA; result = 0.519
Oligonucleotide = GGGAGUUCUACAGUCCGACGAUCAGUUUAUUUGCUUUUUUUAAAAAGGAGAUUAUUCUAAAAUAUAAACUUAUUUGCAUAUAUUGGAGGAGCAUCCACUAUCAGUAUUUCUGUGCUUUAUAAACUAUAUUAGAUGGAAUUCUCGGGUGCCAA; result = 0.846
Oligonucleotide = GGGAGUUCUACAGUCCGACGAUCUUUCACCCCUUGUCCUUUUCCACCCUUUUAAGAGUUACGCUAGCAGAUCUUACUCCACGUAUACUUUUUGGUUUGUGAAGGCAUCGGUUAAGGGCACAAAGACAGCCAUGUGGAAUUCUCGGGUGCCAA; result = 1.26
Oligonucleotide = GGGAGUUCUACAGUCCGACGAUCUCAGAAAUCCGCCUGCCUCUGCCUCCCGAGUGCUGGGAUUAAAGGUGCAAACUACCACGCCUGGCAGACCCACCAUUUCUUUGCUUUGGAAAGGUAAUUUAUGAUUAACUUGGAAUUCUCGGGUGCCAA; result = 1.45
Oligonucleotide = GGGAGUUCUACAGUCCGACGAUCAAUGCAAAGCCACAUACUUUGAAAUAUAUUAUUCCAAAUUGAGCUCCCUUCCCUUUGCACAUAUUUUUUCCUCCCCUUAUUGAAGUCAGCUCUAACCCCAAAUUCUAGUAUGGAAUUCUCGGGUGCCAA; result = 1.94
Oligonucleotide = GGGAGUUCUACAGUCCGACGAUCUUACUCAAUUCCAGAUAUGGCCGAGGAUGGGUUGAUCACAGACGAUUAGCUGUAAACAGUUUUCGAUAUUUUGGAUAUGGCCAAAAGUCUUUUGAAUCUAAAAUCUUGGAUGGAAUUCUCGGGUGCCAA; result = 0.624
Oligonucleotide = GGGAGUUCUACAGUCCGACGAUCACGGGUUACUAAGAUGAAAUUGCCAAAAAAAUUUAUAAACUAAUUUUGUACGUAUGAAUGAUAUCUUUGACCUCAAUGGAGGUUUGCAAAGACUGAGUGUUCAAACUACUUGGAAUUCUCGGGUGCCAA; result = 0.466
Oligonucleotide = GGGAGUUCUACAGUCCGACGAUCACUGGCAAUUUUAUAGAGGGUUGGUUUAGUUCUUUGCUUUUUCAACAGGAAAUAACACUUCAGGAGGAACUGAAACUAGCUAAGCCUUCCUUUUUAGCAAGUAAACCUUGUGGAAUUCUCGGGUGCCAA; result = 0.28
Oligonucleotide = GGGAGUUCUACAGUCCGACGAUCUAACAAUAUUUUGUAAAAUGAUGCUUCCCCCUUCUCCAUGGUCUAGUCAAUUUUGUACAAUUAGGUAUCUGACUUUACAAGUUUGUUAUCCUUUCUAAUUUUUACUGAACUGGAAUUCUCGGGUGCCAA; result = 0.488
Oligonucleotide = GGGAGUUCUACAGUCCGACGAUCCUAAAACCACGUGAAAUGUGAAUGAUUAUUGGCAAUAUUACCUUGACAGAAUCAUGGGACUUUGAGAAGAGGGAGGACAGAGGCCUCUGUCGCACUAACGCUCUCGUGGUUGGAAUUCUCGGGUGCCAA; result = 0.453
Oligonucleotide = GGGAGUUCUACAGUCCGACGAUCUCCCCAACUUUUCCAUCCAGUGCUUAACCUAAAAAACUCCUUAACUCUGCCUUGACCUGAGGAAGACCAUGCUAACUGGUGUUAUUUUGUAUGUACCCUGUGCUUAAUUCUGGAAUUCUCGGGUGCCAA; result = 2.27
Oligonucleotide = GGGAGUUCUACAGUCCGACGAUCAUUGUUGCAGAGCUAGCUCCACAGAGUCAGAAAGUUCUGACCCACAUUAGACCCGUGUGCGCUGCUAAGGCCAUGGUAACCCUCUGGGGACAGGCAGCCAUUGAUGGGAGUGGAAUUCUCGGGUGCCAA; result = 0.291

Study 2
Target: Sal-like protein 4, full length isoform B (SALL4, Homo sapiens, UniProt Q9UJQ4-2, residues 1-616)
Method: universal PBM
Molecule type: double-stranded DNA, one strand shown
Medium: in vitro
Concentration: not given
Setting: 8-mer, flanks averaged, mean of replicates
Direction: higher = stronger binding
Endpoint: E-score
Oligonucleotide = GCAGCTTA; result = -0.174
Oligonucleotide = ACGCTAGT; result = 0.00133
Oligonucleotide = CGTCGAAG; result = -0.105
Oligonucleotide = CTCACGGC; result = -0.264
Oligonucleotide = GGTATGAC; result = 0.0145
Oligonucleotide = GCCAGATA; result = 0.0442
Oligonucleotide = CTAAGTGA; result = 0.0397
Oligonucleotide = ACGATATC; result = 0.134
Oligonucleotide = AACCCGAC; result = -0.098
Oligonucleotide = ATCCGATG; result = -0.101
Oligonucleotide = CCTGCGTC; result = -0.249
Oligonucleotide = GATAGTTA; result = 0.222
Oligonucleotide = GCCTTCCC; result = -0.315
Oligonucleotide = AGCGGTAG; result = -0.249
Oligonucleotide = CGAAAAAG; result = 0.0576
Oligonucleotide = GGATCAGA; result = -0.0899
Oligonucleotide = TACTGGAA; result = 0.0471
Oligonucleotide = CGTTTGAA; result = 0.0642
Oligonucleotide = ACTAGTCC; result = -0.0591

Study 3
Target: Prothrombin, mature alpha-thrombin (F2, Homo sapiens, UniProt P00734)
Method: aptamer microarray, sandwich
Molecule type: DNA with 2'F-ANA
Medium: in vitro
Concentration: 200 nM
Setting: whole 15-mer aptamer, many near background
Together with: Cy3 exosite-II aptamer, 400 nM
Direction: higher = stronger binding
Endpoint: mean fluorescence intensity
Oligonucleotide: GGTTGGTGTGGTTGG
Modification = 2'F-ANA at 4 7 8 10 11 13 14 15; result = 72.1 a.u.
Modification = 2'F-ANA at 1 2 5 10 12; result = 47.5 a.u.
Modification = 2'F-ANA at 1 4 5 6 11 13 15; result = 64.2 a.u.
Modification = 2'F-ANA at 1 4 5 8 11 12 13 15; result = 65.5 a.u.
Modification = 2'F-ANA at 2 5 8 11 14 15; result = 45.6 a.u.
Modification = 2'F-ANA at 1 2 3 4 5 15; result = 60.9 a.u.
Modification = 2'F-ANA at 4 5 6 9 11 14 15; result = 47.8 a.u.
Modification = 2'F-ANA at 3 7 8 11 14 15; result = 647 a.u.
Modification = 2'F-ANA at 2 3 4 6 8 9 10 12 13; result = 218 a.u.
Modification = 2'F-ANA at 3 5 6 7 10 12 15; result = 58.8 a.u.
Modification = 2'F-ANA at 3 5 7 9 10 12 13 14 15; result = 56.1 a.u.
Modification = 2'F-ANA at 1 3 7 9 10 13; result = 74.9 a.u.
Modification = 2'F-ANA at 2 5 6 7 12 13 14; result = 47 a.u.
Modification = 2'F-ANA at 2 3 5 9 14 15; result = 53.4 a.u.
Modification = 2'F-ANA at 2 3 4 5 7 15; result = 122 a.u.
Modification = 2'F-ANA at 1 2 4 6 7 8 10 12 13 15; result = 68 a.u.

Study 4
Target: ABI1, truncated, D143A, DHFR fusion (Arabidopsis thaliana)
Method: DHFR PCA, deep sequencing
Medium: yeast
Setting: methotrexate growth selection, single substitutions
Together with: (+)-ABA 1.4 µM
Baseline: wild-type fitted maximum
Direction: higher = stronger binding
Endpoint: relative binding score
Parent: PYL1, truncated, DHFR fusion (Arabidopsis thaliana); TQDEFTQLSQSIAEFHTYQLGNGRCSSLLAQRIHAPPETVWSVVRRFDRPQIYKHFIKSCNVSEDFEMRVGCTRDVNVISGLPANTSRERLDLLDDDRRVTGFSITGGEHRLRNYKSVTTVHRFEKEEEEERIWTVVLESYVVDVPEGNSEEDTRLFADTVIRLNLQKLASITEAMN
Variant = V143G; result = -3.51%
Variant = G102H; result = -8.88%
Variant = K126D; result = 77%
Variant = L82I; result = 42.6%
Variant = V143T; result = 32.6%
Variant = S87R; result = 36.8%
Variant = Q167G; result = 38.6%
Variant = Q31H; result = 25.7%
Variant = V142M; result = 22.2%
Variant = E174F; result = -24.2%
Variant = H122T; result = -3.03%
Variant = N165H; result = 16%
Variant = P83T; result = 4.24%
Variant = A170R; result = 57.1%
Variant = K54V; result = -0.396%

Study 5
Target: Interferon regulatory factor 3, full length, phosphomimetic (IRF3, Homo sapiens, UniProt Q14653, residues 1-427, S386D/S396D/S398D/S402D/T404D/S405D)
Method: protein-binding microarray
Molecule type: double-stranded DNA, one strand shown
Medium: in vitro
Concentration: 2540 nM top
Setting: 60-bp whole probe
Together with: salmon DNA 0.4 mg/ml
Baseline: random background probes
Direction: higher = stronger binding
Endpoint: fitted relative affinity
Constant ends, left off below: GCCTAGCAC … GTCTTGATTCGCTTGACGCTGCTG
Residues (chain): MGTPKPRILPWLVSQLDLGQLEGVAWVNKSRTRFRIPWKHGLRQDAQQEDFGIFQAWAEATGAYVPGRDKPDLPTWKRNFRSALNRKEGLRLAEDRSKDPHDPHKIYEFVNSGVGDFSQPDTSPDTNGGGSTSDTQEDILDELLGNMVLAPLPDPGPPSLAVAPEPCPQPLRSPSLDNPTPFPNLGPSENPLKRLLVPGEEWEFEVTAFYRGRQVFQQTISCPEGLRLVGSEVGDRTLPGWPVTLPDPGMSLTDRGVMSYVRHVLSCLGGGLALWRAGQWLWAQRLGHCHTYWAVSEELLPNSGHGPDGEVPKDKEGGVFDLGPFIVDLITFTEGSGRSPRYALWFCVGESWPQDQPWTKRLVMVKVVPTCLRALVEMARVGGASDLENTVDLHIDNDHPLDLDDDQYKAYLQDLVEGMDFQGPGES
Oligonucleotide = AGTATGAGTTGCCCTTTCCCGTGCTAG; result = 3.98 z-score
Oligonucleotide = TCACTCATGGCTTTGTAGATGTGCTAG; result = -0.499 z-score
Oligonucleotide = GTCGGACTGGGACTGGGGACGTGCTAG; result = -0.355 z-score
Oligonucleotide = TAAGGACTGGACACTGGGTTAGTGCTA; result = -0.84 z-score
Oligonucleotide = AGGGTGTTCTTTTCTGTTGTCGTGCTA; result = 0.949 z-score
Oligonucleotide = TCATGTTTCTCAACCAGACTGTGCTAG; result = 1.28 z-score
Oligonucleotide = TTAGATCTGGGGACTGGATTAGTGCTA; result = -0.692 z-score
Oligonucleotide = GACGGTATCGGGTTTCGGGCCGTGCTA; result = 2.42 z-score
Oligonucleotide = GACGGTTTCCTTATCCTGGCGTGCTAG; result = 8.4 z-score
Oligonucleotide = TTAGATCTCAGTATCGATAAGTGCTAG; result = 0.806 z-score
Oligonucleotide = GATGGTCTCCTTCTCCTGACGTGCTAG; result = 3.94 z-score
Oligonucleotide = TTAGAACTGAGACTGGGTTAGTGCTAG; result = -0.491 z-score
Oligonucleotide = GACGGTACCCTACTGCTGACGTGCTAG; result = 1.14 z-score
Oligonucleotide = GACGAACTGAGTATCGAGGCGTGCTAG; result = -0.0403 z-score

Study 6
Target: Histone acetyltransferase KAT6A, winged helix 2, GST fusion (KAT6A, Homo sapiens, UniProt Q92794, residues 85-181)
Method: protein binding microarray
Molecule type: double-stranded DNA, one strand shown
Medium: in vitro
Concentration: not given
Setting: 8-mer, flanks averaged, mean of 2 arrays, mostly near background
Baseline: not given
Direction: higher = stronger binding
Endpoint: E-score
Residues (chain): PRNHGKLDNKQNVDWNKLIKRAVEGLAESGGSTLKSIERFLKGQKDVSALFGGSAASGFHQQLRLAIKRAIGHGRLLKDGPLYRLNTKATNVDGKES
Oligonucleotide = CCTACATA; result = -0.118
Oligonucleotide = CTAGATGA; result = -0.178
Oligonucleotide = CCGACTCA; result = -0.0585
Oligonucleotide = GTAACCCA; result = 0.0588
Oligonucleotide = ACCAGCCA; result = 0.0346
Oligonucleotide = CTTTTGTC; result = 0.0263
Oligonucleotide = GCCGGGAA; result = 0.176
Oligonucleotide = CCTCGTCA; result = 0.0937
Oligonucleotide = GGAGATCA; result = -0.112
Oligonucleotide = CTACCAGC; result = -0.0772
Oligonucleotide = ACTATGCA; result = -0.072
Oligonucleotide = AACCTAGG; result = -0.04
Oligonucleotide = GCATCGAA; result = 0.105
Oligonucleotide = ATCAGTCA; result = -0.0902
Oligonucleotide = AGTGCCAA; result = 0.125
Oligonucleotide = CTATTGAC; result = -0.106

Repeated from above (study 6):
Oligonucleotide = ACCAGCCA; result = 0.0346
Oligonucleotide = CTTTTGTC; result = 0.0263
Oligonucleotide = GCCGGGAA; result = 0.176
Oligonucleotide = CCTCGTCA; result = 0.0937
Oligonucleotide = GGAGATCA; result = -0.112
Oligonucleotide = CTACCAGC; result = -0.0772
Oligonucleotide = ACTATGCA; result = -0.072
